{"sequences": {"note": "Protein sequences, listed by entry. Tags and fused reporters are not part of them. Residues count along the entry.", "UniProt P04150, whole entry": "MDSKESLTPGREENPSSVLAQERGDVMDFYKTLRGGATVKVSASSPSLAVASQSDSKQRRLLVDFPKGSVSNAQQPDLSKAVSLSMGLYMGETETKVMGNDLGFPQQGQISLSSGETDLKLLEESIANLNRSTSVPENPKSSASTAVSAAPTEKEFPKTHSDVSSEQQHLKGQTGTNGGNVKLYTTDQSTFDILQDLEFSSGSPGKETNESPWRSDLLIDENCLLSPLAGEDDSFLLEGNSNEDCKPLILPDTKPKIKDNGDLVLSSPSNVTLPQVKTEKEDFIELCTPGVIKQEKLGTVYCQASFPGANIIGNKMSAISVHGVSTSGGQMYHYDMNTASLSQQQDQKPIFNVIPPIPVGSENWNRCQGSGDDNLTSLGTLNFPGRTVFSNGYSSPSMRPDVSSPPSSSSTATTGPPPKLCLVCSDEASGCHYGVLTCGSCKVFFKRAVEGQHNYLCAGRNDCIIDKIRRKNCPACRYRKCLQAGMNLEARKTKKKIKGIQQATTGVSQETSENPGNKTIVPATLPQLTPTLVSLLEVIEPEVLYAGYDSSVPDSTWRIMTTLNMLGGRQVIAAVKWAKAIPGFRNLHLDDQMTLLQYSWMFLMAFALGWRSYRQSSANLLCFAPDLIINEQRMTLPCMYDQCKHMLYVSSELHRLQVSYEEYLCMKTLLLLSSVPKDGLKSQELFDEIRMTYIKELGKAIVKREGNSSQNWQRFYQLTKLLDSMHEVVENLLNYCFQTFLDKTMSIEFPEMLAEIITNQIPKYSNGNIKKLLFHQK", "UniProt Q16828, whole entry": "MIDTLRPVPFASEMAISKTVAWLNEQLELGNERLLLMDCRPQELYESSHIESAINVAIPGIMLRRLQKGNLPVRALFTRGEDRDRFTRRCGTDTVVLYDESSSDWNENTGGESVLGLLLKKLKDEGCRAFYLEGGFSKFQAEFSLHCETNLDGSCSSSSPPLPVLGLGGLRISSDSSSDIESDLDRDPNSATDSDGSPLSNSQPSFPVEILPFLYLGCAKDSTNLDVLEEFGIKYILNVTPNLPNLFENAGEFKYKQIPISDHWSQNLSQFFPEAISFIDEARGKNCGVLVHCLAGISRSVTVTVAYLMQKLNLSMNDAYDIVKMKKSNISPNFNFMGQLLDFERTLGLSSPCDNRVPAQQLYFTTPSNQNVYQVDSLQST", "UniProt P08913, whole entry": "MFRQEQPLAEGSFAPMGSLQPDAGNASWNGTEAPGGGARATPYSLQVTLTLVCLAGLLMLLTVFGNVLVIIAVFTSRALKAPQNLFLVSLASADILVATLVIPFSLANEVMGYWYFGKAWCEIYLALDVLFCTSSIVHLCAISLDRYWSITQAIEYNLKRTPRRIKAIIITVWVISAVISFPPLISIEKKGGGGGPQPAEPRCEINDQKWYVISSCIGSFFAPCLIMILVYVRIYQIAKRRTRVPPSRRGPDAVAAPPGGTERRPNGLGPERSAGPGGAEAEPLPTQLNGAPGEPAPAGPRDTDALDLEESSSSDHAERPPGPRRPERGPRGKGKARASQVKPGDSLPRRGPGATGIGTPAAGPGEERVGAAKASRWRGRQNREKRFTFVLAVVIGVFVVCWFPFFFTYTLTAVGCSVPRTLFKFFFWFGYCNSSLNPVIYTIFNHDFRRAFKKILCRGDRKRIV", "UniProt P28827, whole entry, looked up": "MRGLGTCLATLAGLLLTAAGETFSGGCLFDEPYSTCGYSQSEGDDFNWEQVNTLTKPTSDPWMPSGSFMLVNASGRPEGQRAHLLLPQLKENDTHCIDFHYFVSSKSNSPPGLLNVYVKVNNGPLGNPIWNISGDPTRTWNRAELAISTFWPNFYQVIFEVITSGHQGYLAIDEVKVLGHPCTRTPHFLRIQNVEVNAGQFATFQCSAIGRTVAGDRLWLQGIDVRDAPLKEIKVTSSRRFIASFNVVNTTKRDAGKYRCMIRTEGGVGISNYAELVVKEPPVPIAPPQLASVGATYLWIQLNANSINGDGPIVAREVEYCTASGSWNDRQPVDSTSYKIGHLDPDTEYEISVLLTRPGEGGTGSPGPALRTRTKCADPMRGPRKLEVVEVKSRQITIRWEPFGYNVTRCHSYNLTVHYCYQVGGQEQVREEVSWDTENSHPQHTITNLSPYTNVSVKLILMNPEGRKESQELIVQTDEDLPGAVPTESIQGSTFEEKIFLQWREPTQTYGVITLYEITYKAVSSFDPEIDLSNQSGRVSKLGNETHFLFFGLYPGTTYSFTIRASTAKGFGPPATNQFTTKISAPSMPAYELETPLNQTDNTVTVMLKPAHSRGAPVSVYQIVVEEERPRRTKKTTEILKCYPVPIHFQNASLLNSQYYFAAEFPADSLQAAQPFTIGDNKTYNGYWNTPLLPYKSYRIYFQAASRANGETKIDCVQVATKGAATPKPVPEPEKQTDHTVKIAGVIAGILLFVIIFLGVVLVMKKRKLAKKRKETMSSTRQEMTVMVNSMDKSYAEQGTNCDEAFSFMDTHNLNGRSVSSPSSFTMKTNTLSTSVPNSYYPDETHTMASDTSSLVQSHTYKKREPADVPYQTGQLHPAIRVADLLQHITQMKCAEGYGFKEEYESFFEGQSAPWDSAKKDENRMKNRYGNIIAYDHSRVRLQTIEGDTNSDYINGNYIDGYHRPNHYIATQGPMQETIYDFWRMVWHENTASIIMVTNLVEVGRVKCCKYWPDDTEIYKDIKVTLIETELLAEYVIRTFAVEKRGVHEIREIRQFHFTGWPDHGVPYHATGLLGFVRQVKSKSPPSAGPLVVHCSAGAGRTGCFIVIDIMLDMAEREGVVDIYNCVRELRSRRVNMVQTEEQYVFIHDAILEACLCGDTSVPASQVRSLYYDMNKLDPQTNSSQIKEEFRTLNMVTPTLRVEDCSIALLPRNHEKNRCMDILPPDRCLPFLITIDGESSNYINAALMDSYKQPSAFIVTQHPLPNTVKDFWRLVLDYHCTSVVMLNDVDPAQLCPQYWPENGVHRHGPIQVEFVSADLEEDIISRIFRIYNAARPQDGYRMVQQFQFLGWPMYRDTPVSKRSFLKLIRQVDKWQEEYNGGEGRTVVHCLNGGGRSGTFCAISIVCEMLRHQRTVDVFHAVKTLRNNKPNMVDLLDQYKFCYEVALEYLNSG", "UniProt Q99720, whole entry": "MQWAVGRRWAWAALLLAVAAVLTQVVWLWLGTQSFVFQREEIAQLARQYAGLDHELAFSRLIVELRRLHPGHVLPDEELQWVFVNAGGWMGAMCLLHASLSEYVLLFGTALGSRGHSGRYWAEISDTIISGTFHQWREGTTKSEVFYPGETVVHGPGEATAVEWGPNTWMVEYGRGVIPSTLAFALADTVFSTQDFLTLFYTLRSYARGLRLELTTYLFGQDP", "UniProt P35236, whole entry": "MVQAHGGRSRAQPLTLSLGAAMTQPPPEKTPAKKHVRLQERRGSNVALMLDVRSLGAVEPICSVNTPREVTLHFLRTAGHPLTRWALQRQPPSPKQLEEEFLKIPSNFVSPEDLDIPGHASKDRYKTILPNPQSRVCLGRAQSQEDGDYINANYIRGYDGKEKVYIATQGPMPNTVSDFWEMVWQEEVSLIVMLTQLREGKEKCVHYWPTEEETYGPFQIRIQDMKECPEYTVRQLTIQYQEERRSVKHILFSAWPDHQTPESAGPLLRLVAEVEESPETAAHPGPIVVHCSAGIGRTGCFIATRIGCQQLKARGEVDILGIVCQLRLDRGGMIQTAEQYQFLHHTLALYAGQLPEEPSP", "UniProt Q9H2K8, whole entry": "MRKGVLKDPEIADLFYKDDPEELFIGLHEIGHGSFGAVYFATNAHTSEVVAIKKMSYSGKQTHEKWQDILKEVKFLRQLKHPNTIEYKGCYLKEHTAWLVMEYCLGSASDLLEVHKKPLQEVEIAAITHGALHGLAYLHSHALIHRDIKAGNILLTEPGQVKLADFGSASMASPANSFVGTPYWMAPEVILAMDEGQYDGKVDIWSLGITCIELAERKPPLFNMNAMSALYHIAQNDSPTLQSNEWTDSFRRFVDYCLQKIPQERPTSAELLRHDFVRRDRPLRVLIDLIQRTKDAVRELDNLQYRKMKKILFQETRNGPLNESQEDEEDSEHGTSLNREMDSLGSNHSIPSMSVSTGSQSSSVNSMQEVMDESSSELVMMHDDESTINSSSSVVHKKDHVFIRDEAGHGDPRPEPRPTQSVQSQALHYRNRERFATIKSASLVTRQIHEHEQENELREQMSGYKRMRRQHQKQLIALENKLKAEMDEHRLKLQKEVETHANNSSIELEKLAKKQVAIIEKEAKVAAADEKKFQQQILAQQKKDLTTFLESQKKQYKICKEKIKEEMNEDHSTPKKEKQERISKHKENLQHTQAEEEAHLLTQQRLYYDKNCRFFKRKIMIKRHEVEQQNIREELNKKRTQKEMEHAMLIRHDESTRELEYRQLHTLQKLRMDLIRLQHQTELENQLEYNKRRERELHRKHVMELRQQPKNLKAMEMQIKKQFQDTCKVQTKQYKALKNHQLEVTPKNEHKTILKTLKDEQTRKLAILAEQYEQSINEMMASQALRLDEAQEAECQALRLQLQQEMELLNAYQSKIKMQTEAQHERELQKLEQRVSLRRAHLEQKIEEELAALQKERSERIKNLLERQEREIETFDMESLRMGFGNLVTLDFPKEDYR", "UniProt P35968, 20-1356 limits assumed": "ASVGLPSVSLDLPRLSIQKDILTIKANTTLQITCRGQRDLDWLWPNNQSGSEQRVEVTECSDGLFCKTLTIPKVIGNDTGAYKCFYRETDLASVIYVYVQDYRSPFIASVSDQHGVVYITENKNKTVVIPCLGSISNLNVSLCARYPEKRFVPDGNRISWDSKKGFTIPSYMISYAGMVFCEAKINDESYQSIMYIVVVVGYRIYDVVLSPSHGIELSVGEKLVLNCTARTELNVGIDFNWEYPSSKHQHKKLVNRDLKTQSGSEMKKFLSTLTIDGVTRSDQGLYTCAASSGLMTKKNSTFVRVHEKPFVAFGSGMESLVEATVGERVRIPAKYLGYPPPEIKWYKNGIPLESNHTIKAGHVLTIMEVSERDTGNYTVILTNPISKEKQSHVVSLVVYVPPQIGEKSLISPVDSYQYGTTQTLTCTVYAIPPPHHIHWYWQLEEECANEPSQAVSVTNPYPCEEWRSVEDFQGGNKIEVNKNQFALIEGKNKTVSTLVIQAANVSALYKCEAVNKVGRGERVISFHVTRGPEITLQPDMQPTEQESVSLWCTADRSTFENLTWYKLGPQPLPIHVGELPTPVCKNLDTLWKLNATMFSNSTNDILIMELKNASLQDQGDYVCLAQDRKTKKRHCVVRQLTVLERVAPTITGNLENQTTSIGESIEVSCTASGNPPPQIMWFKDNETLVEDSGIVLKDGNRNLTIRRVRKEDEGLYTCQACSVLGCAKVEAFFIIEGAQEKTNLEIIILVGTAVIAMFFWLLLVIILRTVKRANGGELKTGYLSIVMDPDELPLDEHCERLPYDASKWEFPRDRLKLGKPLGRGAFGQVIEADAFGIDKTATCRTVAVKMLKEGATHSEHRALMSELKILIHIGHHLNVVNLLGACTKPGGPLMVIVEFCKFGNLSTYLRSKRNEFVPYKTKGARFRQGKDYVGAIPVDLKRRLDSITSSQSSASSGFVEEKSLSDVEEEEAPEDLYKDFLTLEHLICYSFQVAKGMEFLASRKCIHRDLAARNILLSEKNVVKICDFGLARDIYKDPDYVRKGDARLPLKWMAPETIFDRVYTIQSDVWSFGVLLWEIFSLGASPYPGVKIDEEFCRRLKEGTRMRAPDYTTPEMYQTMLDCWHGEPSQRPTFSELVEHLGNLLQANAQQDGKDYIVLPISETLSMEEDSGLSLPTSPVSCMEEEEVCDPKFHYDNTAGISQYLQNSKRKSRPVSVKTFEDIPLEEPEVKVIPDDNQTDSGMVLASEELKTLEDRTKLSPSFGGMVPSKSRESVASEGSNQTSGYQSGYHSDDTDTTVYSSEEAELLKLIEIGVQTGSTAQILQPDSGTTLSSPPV", "UniProt Q9QWY8, 325-724 limits assumed": "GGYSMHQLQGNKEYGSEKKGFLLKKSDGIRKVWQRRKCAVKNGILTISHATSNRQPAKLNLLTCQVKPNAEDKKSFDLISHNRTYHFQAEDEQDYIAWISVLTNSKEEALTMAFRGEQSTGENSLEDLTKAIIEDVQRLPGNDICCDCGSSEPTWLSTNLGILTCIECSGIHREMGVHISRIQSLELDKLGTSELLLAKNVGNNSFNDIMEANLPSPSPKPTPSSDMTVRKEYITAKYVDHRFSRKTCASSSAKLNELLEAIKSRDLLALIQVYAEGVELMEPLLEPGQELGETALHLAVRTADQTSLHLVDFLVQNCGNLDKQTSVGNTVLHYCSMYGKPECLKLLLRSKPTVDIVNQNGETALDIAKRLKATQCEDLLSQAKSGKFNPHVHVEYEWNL"}, "data": "Experimental data gathered from unrelated publications", "NR3C1": "Glucocorticoid receptor (NR3C1, Homo sapiens, UniProt P04150)", "Dual specificity protein phosphatase 6": "Dual specificity protein phosphatase 6 (Homo sapiens, UniProt Q16828)", "note": "Compare with care: the assays were run in different laboratories. ± gives the spread as reported."}
{"SMILES": "C[C@@]12CC(=O)[C@@H]3[C@@H](CCC4=CC(=O)CC[C@]43C)[C@@H]1CC=C2CC(=O)O", "target or system": "NR3C1", "test": "nuclear translocation, agonist, enzyme fragment complementation", "quantity": "EC50", "value": "> 9 µM"}
{"SMILES": "O=c1/c(=C/c2ccccc2Cl)sc2nc3cc(Br)cnc3n12", "target or system": "Dual specificity protein phosphatase 6", "test": "phosphatase activity, inhibitor", "conditions": "added: OMFP", "quantity": "IC50", "value": "> 100 µM"}
{"SMILES": "Fc1cccc(-n2cnc3c(NCc4nc5cc(Cl)ccc5[nH]4)nc(N4CCNCC4)nc32)c1", "target or system": "FLT3 (Homo sapiens, UniProt P36888, D835Y)", "test": "KINOMEscan competition binding", "conditions": "10 µM", "how to read": "baseline: control", "quantity": "remaining binding", "value": "10%"}
{"SMILES": "Nc1c(N=Nc2ccc(Oc3ccc(N=Nc4cc(S(=O)(=O)O)c5ccccc5c4N)cc3)cc2)cc(S(=O)(=O)O)c2ccccc12", "target or system": "Cystine/glutamate transporter, with SLC3A2 (SLC7A11, Homo sapiens, UniProt Q9UPY5)", "test": "L-glutamate uptake, inhibitor", "system": "SNB-19", "conditions": "added: 3H-L-glutamate", "quantity": "Ki", "value": "11 ± 1.3 µM"}
{"SMILES": "Fc1cc(-c2ccc3c(n2)[nH]c2ccncc23)ccn1 [isotope labelled]", "target or system": "Microtubule-associated protein tau, paired helical filaments (MAPT, Homo sapiens, UniProt P10636)", "test": "radioligand binding", "system": "PHF tau brain homogenate", "conditions": "142.86 nM", "how to read": "higher = more binding", "quantity": "specific binding", "value": "27.6 a.u."}
{"SMILES": "CC(=O)O/C(=C1/C[C@H]2[C@@H]3CC=C4C[C@@H](OC(C)=O)CC[C@]4(C)[C@@H]3CC[C@]2(C)C1=O)C(F)(F)F", "target or system": "NR3C1", "test": "nuclear translocation, agonist, enzyme fragment complementation", "quantity": "EC50", "value": "> 9 µM"}
{"SMILES": "O=C1C(=Cc2ccc(O)c(O)c2)Oc2ccccc21", "target or system": "SPHK2 (Homo sapiens, UniProt Q9NRA0)", "test": "inhibitor, FlashPlate", "quantity": "Ki", "value": "20 µM"}
{"SMILES": "O=C(Nc1cccnn1)N1CC(Oc2ccc(-c3ccccc3F)cn2)C1", "test": "Emax model of Ctrough concentration-response, refers to: plasma OEA", "system": "human, plasma", "conditions": "oral, repeated daily dosing", "quantity": "Emax", "value": "~8 ng/mL"}
{"SMILES": "CC[C@@H]1C(=O)N(C)c2cnc(Nc3ccc(C(=O)NC4CCN(C)CC4)cc3OC)nc2N1C1CCCC1", "target or system": "TRIM24 (Homo sapiens, UniProt O15164)", "conditions": "10 µM", "quantity": "delta Tm", "value": "-0.43 ± 0.18 °C"}
{"SMILES": "CN1CCN(c2ccc3c(c2)[C@H]2C[C@H]3CCN2S(=O)(=O)c2cc(Cl)cc(Cl)c2)CC1", "target or system": "ADRA2A (Homo sapiens, UniProt P08913)", "test": "radioligand competition binding", "quantity": "Ki", "value": "0.162 µM"}
{"SMILES": "COc1cc(CC(=O)NCC(NC(=O)C(CCCNC(=O)c2cccc(I)c2)NC(=O)C(Cc2ccc(C(F)(F)P(=O)(O)O)cc2)NC(=O)c2ccc(C)c(Br)c2)C(N)=O)ccc1O (stereo not drawn)", "target or system": "Receptor-type tyrosine-protein phosphatase mu (Homo sapiens, UniProt P28827)", "test": "enzyme activity", "conditions": "10 µM", "quantity": "inhibition", "value": "no inhibition"}
{"SMILES": "CC(=O)OC1=CC2=CC[C@H]3[C@H]4CCC(=O)[C@@]4(C)CC(=O)[C@]3(S)[C@]2(C)CC1", "target or system": "NR3C1", "test": "nuclear translocation, agonist, enzyme fragment complementation", "quantity": "EC50", "value": "> 9 µM"}
{"SMILES": "CC1=Cc2ccccc2C12CCN(C1Cc3ccccc3CC1O)CC2 (single isomer, unassigned)", "target or system": "SIGMAR1 (Homo sapiens, UniProt Q99720)", "test": "binding, radioligand displacement", "conditions": "added: [3H](+)-pentazocine", "quantity": "Ki", "value": "0.47 ± 0.23 µM"}
{"SMILES": "CC(C)[C@@H](C)/C=C\\[C@@H](C)[C@@H]1CC[C@H]2C3=CC=C4C[C@@H](O)CC[C@]4(C)[C@H]3CC[C@]21C", "target or system": "NR3C1", "test": "nuclear translocation, agonist, enzyme fragment complementation", "quantity": "EC50", "value": "> 9 µM"}
{"SMILES": "O=c1/c(=C/c2ccc(-c3cc(Cl)cc(Cl)c3)o2)sc2nc3cc(Br)cnc3n12", "target or system": "PTPN7 (Homo sapiens, UniProt P35236)", "test": "phosphatase activity, inhibitor", "conditions": "added: OMFP", "quantity": "IC50", "value": "5.7 µM"}
{"SMILES": "CC(=O)O[C@H]1CC[C@@]2(C)[C@@H](CC[C@H]3[C@H]2CC(=O)[C@]2(C)[C@@H]3C[C@@H](N3CC3)[C@H]2C(C)=O)C1", "target or system": "NR3C1", "test": "nuclear translocation, agonist, enzyme fragment complementation", "quantity": "EC50", "value": "> 9 µM"}
{"SMILES": "Cc1cc(C)c2nc3s/c(=C\\c4ccc(-c5ccccc5C(=O)O)o4)c(=O)n3c2c1", "target or system": "PTPN5 (Homo sapiens, UniProt P54829)", "test": "phosphatase activity, inhibitor", "conditions": "added: OMFP", "quantity": "IC50", "value": "~100 µM"}
{"SMILES": "CCN1CCN(Cc2ccc(NC(=O)c3ccc(C)c(Oc4ncnc5cc(OC)c(OC)cc45)c3)cc2C(F)(F)F)CC1", "target or system": "TAOK3 (Homo sapiens, UniProt Q9H2K8)", "test": "enzyme activity, Z'-LYTE", "conditions": "added: ATP at Km", "quantity": "IC50", "value": "0.509 µM"}
{"SMILES": "O=c1/c(=C/c2ccc(-c3ccccc3[N+](=O)[O-])o2)sc2nc3cc(Br)cnc3n12", "target or system": "Dual specificity protein phosphatase 6", "test": "phosphatase activity, inhibitor", "conditions": "added: OMFP", "quantity": "IC50", "value": "57 µM"}
{"SMILES": "CN1C/C(=C\\c2ccccn2)C(=O)[C@@H](Cc2ccccn2)C1", "target or system": "KDR (Homo sapiens, UniProt P35968)", "test": "enzyme activity, inhibitor, Z'-LYTE", "quantity": "IC50", "value": "> 100 µM"}
{"SMILES": "CCCCCCCC(=O)OCC(COP(=O)(O)OC1C(O)C(O)C(OP(=O)(O)O)C(OP(=O)(O)O)C1O)OC(=O)CCCCCCC (stereo not drawn)", "target or system": "Arf-GAP with SH3 domain, ANK repeat and PH domain-containing protein 1 (Asap1, Mus musculus, UniProt Q9QWY8)", "test": "GAP activity, activator", "conditions": "15% phosphatidylserine, added: myrArf1·GTP substrate", "quantity": "EC50", "value": "8 µM"}
{"note": "Excerpt of the above:"}
{"SMILES": "O=c1/c(=C/c2ccc(-c3ccccc3[N+](=O)[O-])o2)sc2nc3cc(Br)cnc3n12", "target or system": "Dual specificity protein phosphatase 6", "test": "phosphatase activity, inhibitor", "conditions": "added: OMFP", "quantity": "IC50", "value": "57 µM"}
{"SMILES": "CCCCCCCC(=O)OCC(COP(=O)(O)OC1C(O)C(O)C(OP(=O)(O)O)C(OP(=O)(O)O)C1O)OC(=O)CCCCCCC (stereo not drawn)", "target or system": "Arf-GAP with SH3 domain, ANK repeat and PH domain-containing protein 1 (Asap1, Mus musculus, UniProt Q9QWY8)", "test": "GAP activity, activator", "conditions": "15% phosphatidylserine, added: myrArf1·GTP substrate", "quantity": "EC50", "value": "8 µM"}
{"SMILES": "Cc1cc(C)c2nc3s/c(=C\\c4ccc(-c5ccccc5C(=O)O)o4)c(=O)n3c2c1", "target or system": "PTPN5 (Homo sapiens, UniProt P54829)", "test": "phosphatase activity, inhibitor", "conditions": "added: OMFP", "quantity": "IC50", "value": "~100 µM"}
